Measured values from different studies.
Compare with care: the assays were run in different laboratories. Several values in a cell are separate wells, animals, samples, runs or records. ± marks the error that the study gave.
B1: BAG2; sequence looked up; chain AQAKINAKANEGRFCRSSSMADRSSRLLESLDQLELRVEALREAATAVEQEKEILLEMIHSIQNSQDMRQISDGEREELNLTANRLMGRTLTVEVSVETIRNPQQQESLKHATRIIDEVVNKFLDDLGNAKSHLMSLYSACSSEVPHGPVDQKFQSIVIGCALEDQKKIKRRLETLLRNIENSDKAIKLLEHSKGAGSKTLQQNAESRFN
B2: serpin B12 (human); sequence looked up; chain MDSLVTANTKFCFDLFQEIGKDDRHKNIFFSPLSLSAALGMVRLGARSDSAHQIDEVLHFNEFSQNESKEPDPCLKSNKQKAGSLNNESGLVSCYFGQLLSKLDRIKTDYTLSIANRLYGEQEFPICQEYLDGVIQFYHTTIESVDFQKNPEKSRQEINFWVECQSQGKIKELFSKDAINAETVLVLVNAVYFKAKWETYFDHENTVDAPFCLNANENKSVKMMTQKGLYRIGFIEEVKAQILEMRYTKGKLSMFVLLPSHSKDNLKGLEELERKITYEKMVAWSSSENMSEESVVLSFPRFTLEDSYDLNSILQDMGITDIFDETRADLTGISPSPNLYLSKIIHKTFVEVDENGTQAAAATGAVVSERSLRSWVEFNANHPFLFFIRHNKTQTILFYGRVCSP
B3: human DDX17; sequence looked up; chain MPTGFVAPILCVLLPSPTREAATVASATGDSASERESAAPAAAPTAEAPPPSVVTRPEPQALPSPAIRAPLPDLYPFGTMRGGGFGDRDRDRDRGGFGARGGGGLPPKKFGNPGERLRKKKWDLSELPKFEKNFYVEHPEVARLTPYEVDELRRKKEITVRGGDVCPKPVFAFHHANFPQYVMDVLMDQHFTEPTPIQCQGFPLALSGRDMVGIAQTGSGKTLAYLLPAIVHINHQPYLERGDGPICLVLAPTRELAQQVQQVADDYGKCSRLKSTCIYGGAPKGPQIRDLERGVEICIATPGRLIDFLESGKTNLRRCTYLVLDEADRMLDMGFEPQIRKIVDQIRPDRQTLMWSATWPKEVRQLAEDFLRDYTQINVGNLELSANHNILQIVDVCMESEKDHKLIQLMEEIMAEKENKTIIFVETKRRCDDLTRRMRRDGWPAMCIHGDKSQPERDWVLNEFRSGKAPILIATDVASRGLDVEDVKFVINYDYPNSSEDYVHRIGRTARSTNKGTAYTFFTPGNLKQARELIKVLEEANQAINPKLMQLVDHRGGGGGGGGRSRYRTTSSANNPNLMYQDECDRRLRGVKDGGRRDSASYRDRSETDRAGYANGSGYGSPNSAFGAQAGQYTYGQGTYGAAAYGTSSYTAQEYGAGTYGASSTTSTGRSSQSSSQQFSGIGRSGQQPQPLMSQQFAQPPGATNMIGYMGQTAYQYPPPPPPPPPSRK
B4: PRPF19 (human); sequence looked up; chain SLICSISNEVPEHPCVSPVSNHVYERRLIEKYIAENGTDPINNQPLSEEQLIDIKVAHPIRPKPPSATSIPAILKALQDEWDAVMLHSFTLRQQLQTTRQELSHALYQHDAACRVIARLTKEVTAAREALATLKPQAGLIVPQAVPSSQPSVVGAGEPMDLGELVGMTPEIIQKLQDKATVLTTERKKRGKTVPEELVKPEELSKYRQVASHVGLHSASIPGILALDLCPSDTNKILTGGADKNVVVFDKSSEQILATLKGHTKKVTSVVFHPSQDLVFSASPDATIRIWSVPNASCVQVVRAHESAVTGLSLHATGDYLLSSSDDQYWAFSDIQTGRVLTKVTDETSGCSLTCAQFHPDGLIFGTGTMDSQIKIWDLKERTNVANFPGHSGPITSIAFSENGYYLATAADDSSVKLWDLRKLKNFKTLQLDNNFEVKSLIFDQSGTYLALGGTDVQIYICKQWTEILHFTEHSGLTTGVAFGHHAKFIASTGMDRSLKFYSL
Sequence of UniProt Q64663 (whole entry, unmodified, looked up): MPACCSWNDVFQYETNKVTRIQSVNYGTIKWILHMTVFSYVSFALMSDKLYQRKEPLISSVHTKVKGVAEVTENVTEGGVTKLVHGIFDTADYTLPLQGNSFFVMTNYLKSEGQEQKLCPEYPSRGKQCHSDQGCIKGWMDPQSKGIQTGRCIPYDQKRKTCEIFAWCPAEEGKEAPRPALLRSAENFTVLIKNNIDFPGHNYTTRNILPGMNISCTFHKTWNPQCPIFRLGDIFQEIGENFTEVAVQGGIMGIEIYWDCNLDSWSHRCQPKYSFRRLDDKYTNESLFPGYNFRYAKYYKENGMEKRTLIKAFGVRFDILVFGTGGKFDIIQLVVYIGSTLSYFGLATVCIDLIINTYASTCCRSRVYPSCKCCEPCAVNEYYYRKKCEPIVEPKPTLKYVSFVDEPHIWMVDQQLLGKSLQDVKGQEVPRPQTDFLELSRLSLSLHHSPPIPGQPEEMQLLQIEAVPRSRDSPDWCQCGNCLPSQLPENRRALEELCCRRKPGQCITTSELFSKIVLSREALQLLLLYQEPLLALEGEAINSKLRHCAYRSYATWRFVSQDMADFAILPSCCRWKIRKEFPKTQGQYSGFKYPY
Sequence of UniProt P84090 (whole entry, unmodified, looked up): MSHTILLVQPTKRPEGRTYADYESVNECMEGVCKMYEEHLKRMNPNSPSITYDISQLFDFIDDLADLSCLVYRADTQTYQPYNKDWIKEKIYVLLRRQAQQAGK

B1 (BAG2)
log2 fold change (CYB5R4 knockout human cells; PP4 interaction, 3xFLAG-PP4C IP-MS; concentration not given; baseline: CYB5R4 KO over parental): 2.2

MTVCNASQRQAHAQATAVSL
selectivity ratio (HCC2279; phage binding; peptide; baseline: targeting over control phage): 1.4 ± 0.6

GTDYVAGGM
GFP-positive cells (Jurkat expressing engineered TCR; NFAT-eGFP reporter, fluorescence microscopy; peptide; concentration not given, HLA-A*01:01 on EL4 cells): 0.379%

PRTARHAPAVRKFSPDLKLLKDVKISVSFTE (DGCR8(96-126), SUMO-tagged)
ΔH (Enhancer of rudimentary homolog (Homo sapiens, UniProt P84090); DGCR8 peptide binding, ITC; peptide; 293 K): -4.45 ± 0.189 kcal/mol

B2 (serpin B12)
log2 fold change (CYB5R4 knockout human cells; PP4 interaction, 3xFLAG-PP4C IP-MS; concentration not given; baseline: CYB5R4 KO over parental): 0.43

ELDVIYLLY
GFP-positive cells (Jurkat expressing engineered TCR; NFAT-eGFP reporter, fluorescence microscopy; peptide; concentration not given, HLA-A*01:01 on EL4 cells): 0.683%

11-deoxycorticosterone
rate constant k2 (CYP11B2 (human); substrate binding, stopped-flow kinetic modelling; 4-state branched induced-fit model, together with: no adrenodoxin): 80.7 min⁻¹

BzATP
normalized current (P2X purinoceptor 7 (P2rx7, Rattus norvegicus, UniProt Q64663, I214A/Q143A/R125A); ion current, agonist, two-electrode voltage clamp; Xenopus oocytes; 100 µM): 0.327 and 0.349 and 0.208

FGB (Homo sapiens, UniProt P02675)
cross-linked residues (BSN (Homo sapiens, UniProt Q9UPA5); cross-linking MS; together with: DSSO): K77 to K1284

B3 (human DDX17)
log2 fold change (CYB5R4 knockout human cells; PP4 interaction, 3xFLAG-PP4C IP-MS; concentration not given; baseline: CYB5R4 KO over parental): -0.96

EIDPIPLDY
GFP-positive cells (Jurkat expressing engineered TCR; NFAT-eGFP reporter, fluorescence microscopy; peptide; concentration not given, HLA-A*01:01 on EL4 cells): 12%

colistin
MIC (Salmonella enterica München; broth microdilution; clinical isolate RKI 419/14): ≤ 0.5 µg/mL

YLEPIYLGY
GFP-positive cells (Jurkat expressing engineered TCR; NFAT-eGFP reporter, fluorescence microscopy; peptide; concentration not given, HLA-A*01:01 on EL4 cells): 0.44%

epoetin alfa
mRNA level (UT7/EPO; RT-qPCR, measured: DUSP2; concentration not given, 90 min, normalized to HPRT1; baseline: vehicle): 3.7 fold

monocyte chemoattractant protein-1
monocyte migration (THP-1 monocytes; chemoattractant, transwell migration; 30 ng/mL, 15 h): increased

human myosin-9
log2 fold change (CYB5R4 knockout human cells; PP4 interaction, 3xFLAG-PP4C IP-MS; concentration not given; baseline: CYB5R4 KO over parental): -0.3

FGA (Homo sapiens, UniProt P02671)
cross-linked residues (MTCL1 (Homo sapiens, UniProt Q9Y4B5); cross-linking MS; together with: DSSO): K476 to K445

B4 (PRPF19)
log2 fold change (CYB5R4 knockout human cells; PP4 interaction, 3xFLAG-PP4C IP-MS; concentration not given; baseline: CYB5R4 KO over parental): 0.35

FNA / CGLSGLGVA-NH2 ([18F]FNA-labelled, C-amide)
tissue uptake (ex vivo gamma counting; peptide, healthy mouse, brain; 60 min post injection): 0.18 %ID/g

Peginesatide
phosphorylation level (UT7/EPO; tyrosine phosphorylation, LC-MS/MS phosphoproteomics, GluC, measured: PIK3CA tyrosine 508; 10 nM, 15 min, together with: 10 U/mL EPO; baseline: vehicle): 9.1 fold

ESDIIPLDY
GFP-positive cells (Jurkat expressing engineered TCR; NFAT-eGFP reporter, fluorescence microscopy; peptide; concentration not given, HLA-A*01:01 on EL4 cells): 0.507%

pregnenolone sulfate
responsive cells amplitude (MIN6 and INS1 cells; agonist, calcium microfluorimetry; concentration not given, together with: DTT pretreatment; baseline: not DTT-treated): decreased

human cathepsin D
log2 fold change (CYB5R4 knockout human cells; PP4 interaction, 3xFLAG-PP4C IP-MS; concentration not given; baseline: CYB5R4 KO over parental): 0.26

RTDPIPLGM
GFP-positive cells (Jurkat expressing engineered TCR; NFAT-eGFP reporter, fluorescence microscopy; peptide; concentration not given, HLA-A*01:01 on EL4 cells): 0.46%

Teicoplanin
ultrafiltrate solubility loss (ultrafiltration; low QC): 4.17%

Pam2CSK4
protein level (BV-2; Western blot, measured: NLRP3; concentration not given, unit not given; baseline: control): 2.32 and 2.25

caspofungin
bilirubin (adult ICU patients, mITT, serum; dose not given, Follow-up): 11.8 µmol/L

For quick reference, copied from above:
11-deoxycorticosterone
rate constant k2 (CYP11B2 (human); substrate binding, stopped-flow kinetic modelling; 4-state branched induced-fit model, together with: no adrenodoxin): 80.7 min⁻¹
